Experimental data collected from several papers.
Each numbered part is a random draw from the data of one study; scales do not carry over between parts.

Study 1 — technique: RNA Bind-n-Seq; molecule type: RNA; matrix: in vitro; concentration: 365 nM; reference: no-protein control; direction: higher = stronger binding
Target: RNA binding protein fox-1 homolog 2, RRM domain, GST-SBP tag (RBFOX2, Homo sapiens, UniProt O43251-10, residues 100-194)
Notes: natural RNA segment, single round, ends assumed
Sequence	RBNS enrichment (R)
GGGAGUUCUACAGUCCGACGAUCGCGGAGGGUUGGGGGCAUGGUCUGCAGGCUCAUCUGUGUCCGCCUUUCACUCCACUAAUGCUGUCUCAGUGUUUUCUCUCUCUCUCUUUCGAGCUUGCACUCCGGUACCCUGGAAUUCUCGGGUGCCAA	0.411
GGGAGUUCUACAGUCCGACGAUCAUCCCCACCCUGACUGAGACCUGUGAAGAUGCAGAGUGGCAGGGAAGGUCACAGAGCUCCACCACCCAUGUCCUGUGUCAACAACCCGGUCCCUGUGGCACCUGUAACUGUGGAAUUCUCGGGUGCCAA	0.511
GGGAGUUCUACAGUCCGACGAUCCAUAUUGAGAUCUGAGCCUUGGACGGGUAGGGAAGGGGUUAAGGGGAGAAAGGUUCUUUUUAGCUUUCGAUCCCUCCAAACGUGGUUGUUAACCCAUUGAAUAUACAGAUUGGAAUUCUCGGGUGCCAA	0.445

Study 2 — technique: RNAcompete; molecule type: RNA; matrix: in vitro; concentration: 20 nM; notes: 7-mer, probes averaged, single round; reference: mean of 7-mers; direction: higher = stronger binding
Target: PABPC1L2, full length, GST fusion (mouse, UniProt A0ABA7IW68)
Residues (chain): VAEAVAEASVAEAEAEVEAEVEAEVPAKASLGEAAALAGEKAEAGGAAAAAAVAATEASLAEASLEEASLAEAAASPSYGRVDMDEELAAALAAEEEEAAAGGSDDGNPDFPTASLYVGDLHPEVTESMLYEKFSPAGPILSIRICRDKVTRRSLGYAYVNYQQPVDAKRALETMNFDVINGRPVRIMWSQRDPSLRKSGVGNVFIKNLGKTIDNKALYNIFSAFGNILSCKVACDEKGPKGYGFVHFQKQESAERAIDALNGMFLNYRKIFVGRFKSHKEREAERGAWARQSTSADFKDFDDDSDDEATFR
Sequence	7-mer Z-score
GUGUCGA	-0.0409
UUUUGCU	-0.335
GGGUAGC	0.1
AGGUAUU	-0.182

Further values, each from its own experiment
Molecule	tested on	test	test system	conditions	how to read	quantity	result
ATP5PO (Homo sapiens, UniProt P48047)	SIPA1 (Homo sapiens, UniProt Q96FS4)	cross-linking MS	cell fractions	together with: DSSO	–	cross-linked residues	K199 to T545
PhoQ, residues 284 288 289 292 302 303 QWQEDG	PhoP, residues 12 14 15 18 19 SGWQI (Escherichia coli, UniProt P23836)	Sort-seq, measured: YFP reporter	E. coli	PhoQ-PhoP variant library, together with: 10 µM Mg2+	reference: high Mg2+ state, higher = stronger signaling	fold induction	0.82
COPB1 (Homo sapiens, UniProt P53618)	GOLGA4 (Homo sapiens, UniProt Q13439)	cross-linking MS	cell fractions	together with: DMTMM	–	cross-linked residues	D942 to K1941
